# Experimental data collected from several papers.
# Each numbered part is a random draw from the data of one study; scales do not carry over between parts. Values joined by “and” are separate records of one study, mostly repeats; a detail may differ.
# Chain of UniProt Q16539 (whole entry, looked up): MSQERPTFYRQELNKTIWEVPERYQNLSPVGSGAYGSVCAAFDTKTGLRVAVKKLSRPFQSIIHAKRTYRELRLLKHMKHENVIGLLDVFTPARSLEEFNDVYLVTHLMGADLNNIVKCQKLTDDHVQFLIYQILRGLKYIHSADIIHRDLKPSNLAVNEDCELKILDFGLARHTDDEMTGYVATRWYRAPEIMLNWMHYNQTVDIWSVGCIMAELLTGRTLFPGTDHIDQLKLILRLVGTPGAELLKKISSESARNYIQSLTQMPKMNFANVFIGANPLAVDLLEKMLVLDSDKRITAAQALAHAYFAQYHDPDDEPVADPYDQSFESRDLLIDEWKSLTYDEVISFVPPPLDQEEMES
# Chain of UniProt Q9NWZ3 (whole entry, looked up): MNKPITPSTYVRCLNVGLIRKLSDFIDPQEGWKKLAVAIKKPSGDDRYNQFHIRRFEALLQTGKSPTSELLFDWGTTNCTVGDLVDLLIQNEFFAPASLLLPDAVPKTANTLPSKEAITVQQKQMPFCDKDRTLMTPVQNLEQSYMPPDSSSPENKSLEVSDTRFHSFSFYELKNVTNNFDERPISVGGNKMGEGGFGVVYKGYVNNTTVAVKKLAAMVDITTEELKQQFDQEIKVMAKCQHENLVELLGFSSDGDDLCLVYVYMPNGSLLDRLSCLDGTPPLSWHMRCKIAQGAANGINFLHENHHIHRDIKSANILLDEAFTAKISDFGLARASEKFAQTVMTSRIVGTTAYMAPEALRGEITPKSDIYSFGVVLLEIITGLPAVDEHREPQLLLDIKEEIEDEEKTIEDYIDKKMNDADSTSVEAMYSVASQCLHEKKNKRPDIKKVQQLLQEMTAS
# Chain of UniProt Q9Y243 (whole entry, looked up): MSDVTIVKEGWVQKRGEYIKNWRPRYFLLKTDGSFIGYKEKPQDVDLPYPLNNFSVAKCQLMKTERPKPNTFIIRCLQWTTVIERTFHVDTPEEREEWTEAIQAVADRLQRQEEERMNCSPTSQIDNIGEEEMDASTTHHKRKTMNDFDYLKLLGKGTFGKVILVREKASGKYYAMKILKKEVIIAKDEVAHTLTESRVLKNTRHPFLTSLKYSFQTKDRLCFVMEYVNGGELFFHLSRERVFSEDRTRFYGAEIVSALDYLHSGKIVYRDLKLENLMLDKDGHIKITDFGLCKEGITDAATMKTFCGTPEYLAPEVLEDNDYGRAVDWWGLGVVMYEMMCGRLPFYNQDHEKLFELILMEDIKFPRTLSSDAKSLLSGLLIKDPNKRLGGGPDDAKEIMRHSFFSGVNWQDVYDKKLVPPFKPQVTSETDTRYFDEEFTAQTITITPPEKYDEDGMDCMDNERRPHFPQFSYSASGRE
# Chain of UniProt Q9UHD2 (whole entry, looked up): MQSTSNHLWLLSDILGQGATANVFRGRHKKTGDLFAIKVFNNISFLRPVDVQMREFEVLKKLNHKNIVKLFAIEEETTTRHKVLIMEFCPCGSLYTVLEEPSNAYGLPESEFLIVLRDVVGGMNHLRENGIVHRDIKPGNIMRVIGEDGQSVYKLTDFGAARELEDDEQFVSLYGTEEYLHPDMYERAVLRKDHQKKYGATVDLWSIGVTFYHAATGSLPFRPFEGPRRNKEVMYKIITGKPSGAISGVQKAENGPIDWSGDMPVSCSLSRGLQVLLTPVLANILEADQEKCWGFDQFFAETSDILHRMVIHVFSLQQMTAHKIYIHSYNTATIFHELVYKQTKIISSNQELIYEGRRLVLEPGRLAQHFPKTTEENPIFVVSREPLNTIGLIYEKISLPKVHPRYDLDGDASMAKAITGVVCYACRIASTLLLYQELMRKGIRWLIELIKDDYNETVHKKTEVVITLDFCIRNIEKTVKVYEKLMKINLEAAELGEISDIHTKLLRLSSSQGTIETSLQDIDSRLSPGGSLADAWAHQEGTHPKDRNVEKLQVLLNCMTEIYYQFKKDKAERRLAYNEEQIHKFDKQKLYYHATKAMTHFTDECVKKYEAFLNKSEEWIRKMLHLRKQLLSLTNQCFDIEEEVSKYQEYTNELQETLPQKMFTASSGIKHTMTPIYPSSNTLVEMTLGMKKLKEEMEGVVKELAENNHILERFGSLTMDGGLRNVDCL
# Chain of UniProt P15735 (whole entry, looked up): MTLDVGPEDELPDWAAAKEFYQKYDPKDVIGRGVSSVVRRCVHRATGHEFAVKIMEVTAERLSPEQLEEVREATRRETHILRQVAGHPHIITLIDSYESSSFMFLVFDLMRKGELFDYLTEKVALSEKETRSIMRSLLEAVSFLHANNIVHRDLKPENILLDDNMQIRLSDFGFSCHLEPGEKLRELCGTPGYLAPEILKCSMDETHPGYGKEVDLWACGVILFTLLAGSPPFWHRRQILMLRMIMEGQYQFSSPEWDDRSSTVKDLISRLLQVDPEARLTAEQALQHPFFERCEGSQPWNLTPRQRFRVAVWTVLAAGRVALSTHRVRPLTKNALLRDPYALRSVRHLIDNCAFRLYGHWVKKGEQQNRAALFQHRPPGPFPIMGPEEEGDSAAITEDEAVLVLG
# Chain of UniProt P06239 (whole entry, looked up): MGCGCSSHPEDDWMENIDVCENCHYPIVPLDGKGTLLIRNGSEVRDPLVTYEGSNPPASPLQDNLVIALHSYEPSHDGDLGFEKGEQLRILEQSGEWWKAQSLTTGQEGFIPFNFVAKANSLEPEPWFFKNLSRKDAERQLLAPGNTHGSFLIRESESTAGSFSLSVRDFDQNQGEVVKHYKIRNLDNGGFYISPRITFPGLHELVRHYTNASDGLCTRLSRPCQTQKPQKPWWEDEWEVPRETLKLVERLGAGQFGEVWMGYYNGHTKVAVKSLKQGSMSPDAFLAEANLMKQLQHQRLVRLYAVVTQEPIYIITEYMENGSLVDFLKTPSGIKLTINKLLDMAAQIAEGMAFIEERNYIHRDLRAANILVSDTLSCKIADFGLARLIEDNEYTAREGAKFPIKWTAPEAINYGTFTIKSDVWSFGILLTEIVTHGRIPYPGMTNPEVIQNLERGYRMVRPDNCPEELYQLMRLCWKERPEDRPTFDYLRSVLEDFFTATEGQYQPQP
# Chain of UniProt Q9BYT3 (whole entry, looked up): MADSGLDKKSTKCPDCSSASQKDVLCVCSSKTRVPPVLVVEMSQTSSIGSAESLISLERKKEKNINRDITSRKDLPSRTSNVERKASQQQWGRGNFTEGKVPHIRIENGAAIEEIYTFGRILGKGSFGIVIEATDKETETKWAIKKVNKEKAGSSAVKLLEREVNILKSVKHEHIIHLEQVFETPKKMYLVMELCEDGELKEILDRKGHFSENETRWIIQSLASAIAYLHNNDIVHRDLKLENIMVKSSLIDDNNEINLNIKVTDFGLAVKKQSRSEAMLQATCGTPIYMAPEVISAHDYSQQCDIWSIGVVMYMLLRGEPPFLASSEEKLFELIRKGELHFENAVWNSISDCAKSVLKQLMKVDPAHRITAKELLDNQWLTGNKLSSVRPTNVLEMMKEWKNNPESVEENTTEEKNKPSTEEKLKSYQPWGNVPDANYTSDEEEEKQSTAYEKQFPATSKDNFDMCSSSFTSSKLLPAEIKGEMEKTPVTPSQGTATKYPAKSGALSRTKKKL

# Block 1
# Target: PAS domain-containing serine/threonine-protein kinase (PASK, Homo sapiens, UniProt Q96RG2)
# Chain of UniProt Q96RG2 (whole entry, looked up): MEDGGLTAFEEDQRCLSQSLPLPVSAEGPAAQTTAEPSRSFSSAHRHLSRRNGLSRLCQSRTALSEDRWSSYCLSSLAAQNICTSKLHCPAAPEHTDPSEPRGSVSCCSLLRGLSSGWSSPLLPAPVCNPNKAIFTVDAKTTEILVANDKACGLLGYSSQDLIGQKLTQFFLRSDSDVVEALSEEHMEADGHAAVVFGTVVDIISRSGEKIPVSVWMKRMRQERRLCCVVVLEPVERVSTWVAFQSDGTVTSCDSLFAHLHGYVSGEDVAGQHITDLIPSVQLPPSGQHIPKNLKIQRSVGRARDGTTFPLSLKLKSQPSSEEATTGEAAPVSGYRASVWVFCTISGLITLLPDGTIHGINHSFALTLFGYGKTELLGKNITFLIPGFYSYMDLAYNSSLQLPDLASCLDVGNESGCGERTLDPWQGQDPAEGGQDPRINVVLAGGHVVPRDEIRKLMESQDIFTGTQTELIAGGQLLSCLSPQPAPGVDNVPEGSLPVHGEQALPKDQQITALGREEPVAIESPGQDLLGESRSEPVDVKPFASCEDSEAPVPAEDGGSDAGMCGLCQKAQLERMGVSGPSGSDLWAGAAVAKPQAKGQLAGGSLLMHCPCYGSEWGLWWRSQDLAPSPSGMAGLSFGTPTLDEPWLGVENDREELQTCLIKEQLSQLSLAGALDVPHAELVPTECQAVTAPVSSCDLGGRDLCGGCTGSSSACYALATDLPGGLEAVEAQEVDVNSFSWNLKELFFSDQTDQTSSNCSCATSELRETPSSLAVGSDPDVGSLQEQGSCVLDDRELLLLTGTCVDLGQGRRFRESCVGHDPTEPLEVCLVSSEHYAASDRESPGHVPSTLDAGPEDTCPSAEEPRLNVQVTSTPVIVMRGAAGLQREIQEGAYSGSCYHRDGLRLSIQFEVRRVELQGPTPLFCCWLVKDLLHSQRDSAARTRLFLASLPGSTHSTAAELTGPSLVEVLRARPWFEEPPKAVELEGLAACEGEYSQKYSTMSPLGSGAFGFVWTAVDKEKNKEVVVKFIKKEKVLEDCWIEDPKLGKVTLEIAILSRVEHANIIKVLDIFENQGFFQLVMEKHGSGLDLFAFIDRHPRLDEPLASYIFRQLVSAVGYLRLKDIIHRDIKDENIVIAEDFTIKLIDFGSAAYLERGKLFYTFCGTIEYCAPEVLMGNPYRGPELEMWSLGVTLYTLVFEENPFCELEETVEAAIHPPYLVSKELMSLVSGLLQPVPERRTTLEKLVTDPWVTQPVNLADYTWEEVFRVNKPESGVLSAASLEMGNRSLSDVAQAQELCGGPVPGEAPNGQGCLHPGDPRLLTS
# Observed: enzyme activity
# Action: inhibitor
# Concentration: 0.5 µM
# Reference: control
Compound,remaining activity [%]
COc1cc2c(cc1OC)-c1[nH]nc(Nc3cccc(F)c3)c1C2,93.3
Ic1cccc(CSc2nnc(-c3ccncc3)o2)c1,100
O=C1c2ccccc2-c2n[nH]c3cccc1c23,92.2
CN(C)C[C@H]1CCn2c(c(C3=C(c4cn(C)c5ccccc45)C(=O)NC3=O)c3ccccc32)C1,93
O=C1C(Cl)=C(N2C(=O)CCC2=O)C(=O)c2ccccc21,103
N#Cc1c(NC(=O)c2cccc3ccccc23)sc2c1CCCC2,98.3
CCN(CC)C(=O)c1ccc(Nc2nc(OCC3CCCCC3)c3[nH]cnc3n2)cc1,103
O=C(Nc1cccc(Nc2nccc(Nc3cccc(C(F)(F)F)c3)n2)c1)C1CC1,106
COc1cc2ncnc(Nc3cccc(Cl)c3)c2cc1OC,90.2
c1ccc(-c2[nH]ncc2-c2ccnc3ccccc23)nc1,77.1
CCOc1nc(NC(=O)Cc2cc(OC)ccc2OC)cc(N)c1C#N,91.1
N#C/C(=C\c1ccc(O)c(O)c1)C(=O)NCc1ccccc1,95.1
Cc1cn(-c2cc(NC(=O)c3ccc(C)c(Nc4nccc(-c5cccnc5)n4)c3)cc(C(F)(F)F)c2)cn1,102
c1ccc(-c2cnc(Nc3ccc(OCCN4CCCC4)cc3)s2)cc1,96.4
COc1cc2ncnc(Nc3ccc(O)c(Br)c3)c2cc1OC,57.9
CCN(CC)CCNC(=O)c1c(C)[nH]c(/C=C2\C(=O)Nc3ccc(Cl)cc32)c1C,89.6
C[C@@H]1CCN(C(=O)CC#N)C[C@@H]1N(C)c1ncnc2[nH]ccc12,105
CCN(CC)CCNC(=O)c1c(C)[nH]c(/C=C2\C(=O)Nc3ccc(F)cc32)c1C,102
O=C(NC(NC(=S)Nc1ccc(F)c([N+](=O)[O-])c1)C(Cl)(Cl)Cl)C(c1ccccc1)c1ccccc1 (stereo not drawn),104
Cn1nc2c3c(cccc31)C(=O)c1ccccc1-2,94.6
O=c1cc(-c2cccc3c2Sc2ccccc2S3)oc(N2CCOCC2)c1,101
Cc1nc2cc3nc(-c4cccs4)cnc3cc2n1C,110
Nc1cccc(-c2cc3c(Oc4cccc(O)c4)ncnc3[nH]2)c1,96.2
Cc1cc2ncc(-c3ccccc3)nc2cc1C,82.1
CN([C@@H](Cc1ccc(OS(=O)(=O)c2cccc3cnccc23)cc1)C(=O)N1CCN(c2ccccc2)CC1)S(=O)(=O)c1cccc2cnccc12,103

# Block 2
# Cell line: HaCaT
# Concentration: 100 µM
# Time: 36 h
Structure (SMILES),viability [%]
CC1CCC(C(C)C)C(O)C1 (racemic),100
CCCCN1CCCC[C@H]1C(=O)Nc1c(C)cccc1C,71.2
CCCCc1ncc(/C=C(\Cc2cccs2)C(=O)O)n1Cc1ccc(C(=O)O)cc1,44.9
CC(=O)O[C@]1(C(C)=O)CC[C@H]2[C@@H]3C=C(C)C4=CC(=O)CC[C@]4(C)[C@H]3CC[C@@]21C,9.99
CNC(=C[N+](=O)[O-])NCCSCc1csc(CN(C)C)n1,99.3
CC(CN(C)C)CN1c2ccccc2Sc2ccccc21 (stereo not drawn),6.55

# Block 3
# Cell line: mouse MPNST tumor cells
# Technique: high-content nuclear imaging
# Refers to: cell number
# Concentration: 10 µM
# Time: 12 h
# Setting: mean of 2 replicates
# Reference: plate mean
# Direction: higher = more cells
SMILES,nuclei count
CN1CCN(CCCN2c3ccccc3Sc3ccc(C(F)(F)F)cc32)CC1,-5.83 z-score
CC(=O)O[C@@]12CO[C@@H]1C[C@H](O)[C@@]1(C)C(=O)[C@H](O)C3=C(C)[C@@H](OC(=O)[C@H](O)[C@@H](NC(=O)OC(C)(C)C)c4ccccc4)C[C@@](O)([C@@H](OC(=O)c4ccccc4)[C@H]21)C3(C)C,-4.39 z-score and -4.86 z-score and -0.499 z-score
CCC(NC(C)C)C(O)c1ccc(O)c2[nH]c(=O)ccc12 (stereo not drawn),1.56 z-score
CCCCc1oc2ccc(NS(C)(=O)=O)cc2c1C(=O)c1ccc(OCCCN(CCCC)CCCC)cc1,-5.92 z-score
O=C(O)c1cc(=O)c2c(OCC(O)COc3cccc4oc(C(=O)O)cc(=O)c34)cccc2o1,2.19 z-score
C[C@H](c1ccc(F)cc1CCCC(=O)O)N(c1cc(F)ccc1F)S(=O)(=O)c1ccc(Cl)cc1,1.08 z-score
CC(C)(C)C(=O)OCOC(=O)[C@@H]1N2C(=O)[C@@H](NC(=O)[C@H](N)c3ccccc3)[C@H]2SC1(C)C,0.88 z-score

# Block 4
# SMILES: O=S(=O)(NC1CCC(c2cc(F)ccc2F)(S(=O)(=O)c2ccc(Cl)cc2)CC1)C(F)(F)F (stereo not drawn)
# Observed: cell-free assay
# Technique: competition with immobilised ligand
# Concentration: 1 µM
target,remaining binding [%]
"RAC-gamma serine/threonine-protein kinase (AKT3, Homo sapiens, UniProt Q9Y243)",100
"Mitogen-activated protein kinase kinase kinase 10 (MAP3K10, Homo sapiens, UniProt Q02779)",100
"Mitogen-activated protein kinase kinase kinase kinase 4 (MAP4K4, Homo sapiens, UniProt O95819)",71
"Tyrosine-protein kinase Fyn (FYN, Homo sapiens, UniProt P06241)",85
"Serine/threonine-protein kinase WNK2 (WNK2, Homo sapiens, UniProt Q9Y3S1)",77
"Phosphorylase b kinase gamma catalytic chain, liver/testis isoform (PHKG2, Homo sapiens, UniProt P15735)",91
"Serine/threonine-protein kinase pim-2 (PIM2, Homo sapiens, UniProt Q9P1W9)",100
"Cyclin-dependent kinase 3 (CDK3, Homo sapiens, UniProt Q00526)",100
"Testis-specific serine/threonine-protein kinase 3 (TSSK3, Homo sapiens, UniProt Q96PN8)",88
"Macrophage-stimulating protein receptor (MST1R, Homo sapiens, UniProt Q04912)",93
"Serine/threonine-protein kinase TBK1 (TBK1, Homo sapiens, UniProt Q9UHD2)",100
"Mitogen-activated protein kinase 14 (MAPK14, Homo sapiens, UniProt Q16539)",100
"Interleukin-1 receptor-associated kinase 4 (IRAK4, Homo sapiens, UniProt Q9NWZ3)",97
"Mitogen-activated protein kinase 9 (MAPK9, Homo sapiens, UniProt P45984)",73
"Microtubule-associated serine/threonine-protein kinase 1 (MAST1, Homo sapiens, UniProt Q9Y2H9)",100
"Serine/threonine-protein kinase 33 (STK33, Homo sapiens, UniProt Q9BYT3)",76
"Mitogen-activated protein kinase 13 (MAPK13, Homo sapiens, UniProt O15264)",100
"Tyrosine-protein kinase Lck (LCK, Homo sapiens, UniProt P06239)",100
"G protein-coupled receptor kinase 3 (GRK3, Homo sapiens, UniProt P35626)",92

# Repeated from above (block 3):
SMILES,nuclei count
CN1CCN(CCCN2c3ccccc3Sc3ccc(C(F)(F)F)cc32)CC1,-5.83 z-score
CC(=O)O[C@@]12CO[C@@H]1C[C@H](O)[C@@]1(C)C(=O)[C@H](O)C3=C(C)[C@@H](OC(=O)[C@H](O)[C@@H](NC(=O)OC(C)(C)C)c4ccccc4)C[C@@](O)([C@@H](OC(=O)c4ccccc4)[C@H]21)C3(C)C,-4.39 z-score and -4.86 z-score and -0.499 z-score
CCC(NC(C)C)C(O)c1ccc(O)c2[nH]c(=O)ccc12 (stereo not drawn),1.56 z-score
CCCCc1oc2ccc(NS(C)(=O)=O)cc2c1C(=O)c1ccc(OCCCN(CCCC)CCCC)cc1,-5.92 z-score
O=C(O)c1cc(=O)c2c(OCC(O)COc3cccc4oc(C(=O)O)cc(=O)c34)cccc2o1,2.19 z-score
C[C@H](c1ccc(F)cc1CCCC(=O)O)N(c1cc(F)ccc1F)S(=O)(=O)c1ccc(Cl)cc1,1.08 z-score
